Assay results of several laboratories.
A part holds a random share of what one study measured. Substitutions count along the parent as printed.

Set 1
Target: Prothrombin, mature alpha-thrombin (F2, Homo sapiens, UniProt P00734)
Technique: aptamer microarray, sandwich
Molecule type: DNA with 2'F-ANA
Matrix: in vitro
Concentration: 200 nM
Notes: whole 15-mer aptamer, many near background
Added: Cy3 exosite-II aptamer, 400 nM
Reading: higher = stronger binding
Sequence: GGTTGGTGTGGTTGG
| Modification | mean fluorescence intensity [a.u.] |
| --- | --- |
| 2'F-ANA at 2 4 7 8 12 13 14 15 | 145 |
| 2'F-ANA at 1 2 3 4 6 7 9 13 | 83.7 |
| 2'F-ANA at 3 6 8 9 12 13 | 1060 |
| 2'F-ANA at 3 4 7 8 9 11 12 15 | 794 |
| 2'F-ANA at 1 2 4 6 10 12 | 91.9 |
| 2'F-ANA at 1 3 6 7 9 14 15 | 78.4 |
| 2'F-ANA at 1 5 7 8 10 13 | 44.4 |
| 2'F-ANA at 2 4 5 8 10 11 12 14 15 | 48.1 |
| 2'F-ANA at 1 2 3 5 7 8 9 10 14 15 | 51 |
| 2'F-ANA at 1 2 4 8 9 11 14 | 47.1 |
| 2'F-ANA at 3 5 7 10 14 15 | 49.2 |
| 2'F-ANA at 1 3 4 7 8 9 11 12 13 14 15 | 151 |
| 2'F-ANA at 2 7 9 14 | 157 |
| 2'F-ANA at 1 2 4 5 6 9 10 12 15 | 48.9 |
| 2'F-ANA at 4 6 8 10 11 12 | 93.9 |
| 2'F-ANA at 2 3 4 9 12 13 14 | 286 |
| 2'F-ANA at 2 3 6 7 8 9 10 11 12 14 | 247 |
| 2'F-ANA at 2 5 6 9 10 11 12 14 15 | 48.8 |
| 2'F-ANA at 3 4 5 6 7 10 12 13 15 | 49.7 |
| 2'F-ANA at 2 3 5 7 9 10 12 14 15 | 52 |
| 2'F-ANA at 1 3 4 5 7 9 11 12 15 | 127 |
| 2'F-ANA at 4 5 6 7 9 11 13 | 55.6 |
| 2'F-ANA at 4 9 10 11 12 13 14 | 62.1 |
| 2'F-ANA at 1 4 5 7 10 12 13 15 | 44.6 |
| 2'F-ANA at 2 4 6 7 10 12 13 14 | 61.3 |

Set 2
Target: CCND3, cyclin fold, Cln2 fusion (human)
Technique: yeast growth competition, sequencing
Matrix: yeast
Notes: weak parent motif
Reference: not given
Reading: higher = stronger binding
Starting sequence: E2F1 docking peptide (human); PPVKRRLDFETDH; partner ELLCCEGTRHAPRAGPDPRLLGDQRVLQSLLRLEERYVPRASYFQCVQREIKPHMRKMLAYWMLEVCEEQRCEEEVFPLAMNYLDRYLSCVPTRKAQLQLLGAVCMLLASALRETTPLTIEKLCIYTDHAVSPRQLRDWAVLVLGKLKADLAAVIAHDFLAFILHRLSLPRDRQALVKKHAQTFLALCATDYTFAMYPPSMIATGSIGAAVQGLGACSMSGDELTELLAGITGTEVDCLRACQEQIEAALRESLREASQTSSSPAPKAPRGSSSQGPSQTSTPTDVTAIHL
| Change | normalised enrichment score |
| --- | --- |
| L7D | -0.014 |
| D8F | 1.06 |
| R5A | 0.253 |
| R6M | 0.197 |
| L7W | 0.107 |
| R6G | -0.00217 |
| R6V | 0.458 |
| D12N | 0.589 |
| R6H | -0.291 |
| D12I | 0.398 |
| R5L | 0.119 |
| L7I | 0.00289 |
| P2V | 0.392 |
| T11I | 0.0693 |
| E10V | 0.202 |
| P2G | 0.752 |
| R6Q | 0.0719 |
| R5C | -0.168 |
| E10W | 0.00885 |
| D12C | 0.264 |
| L7K | -0.144 |
| F9C | 0.0248 |
| D8E | 0.226 |
| K4Y | -0.00849 |
| R6A | 0.273 |

Set 3
Target: ABI1, truncated, D143A, DHFR fusion (Arabidopsis thaliana)
Technique: DHFR PCA, deep sequencing
Matrix: yeast
Notes: methotrexate growth selection, single substitutions
Added: (+)-ABA 0.0091 µM
Reference: wild-type fitted maximum
Reading: higher = stronger binding
Starting sequence: PYL1, truncated, DHFR fusion (Arabidopsis thaliana); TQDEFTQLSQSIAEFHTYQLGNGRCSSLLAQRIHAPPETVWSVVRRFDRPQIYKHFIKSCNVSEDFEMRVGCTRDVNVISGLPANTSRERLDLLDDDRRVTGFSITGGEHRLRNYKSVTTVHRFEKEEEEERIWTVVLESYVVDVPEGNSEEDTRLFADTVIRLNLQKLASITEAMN
| Change | relative binding score [%] |
| --- | --- |
| G21W | -1.42 |
| R69C | 12.6 |
| R49N | 2.98 |
| E151V | 50.5 |
| A84N | 35.8 |
| I162N | -2.43 |
| K168C | 2.01 |
| K58W | 1.89 |
| E174A | -1.08 |
| K126H | 44.2 |
| T173M | -0.712 |
| T6Q | 51.1 |
| L91A | 4.67 |
| T73C | 13.9 |
| Y18P | 2.97 |

Set 4
Target: Sal-like protein 4, full length isoform A (SALL4, Homo sapiens, UniProt Q9UJQ4, residues 1-1053)
Chain of UniProt Q9UJQ4 (whole entry, looked up): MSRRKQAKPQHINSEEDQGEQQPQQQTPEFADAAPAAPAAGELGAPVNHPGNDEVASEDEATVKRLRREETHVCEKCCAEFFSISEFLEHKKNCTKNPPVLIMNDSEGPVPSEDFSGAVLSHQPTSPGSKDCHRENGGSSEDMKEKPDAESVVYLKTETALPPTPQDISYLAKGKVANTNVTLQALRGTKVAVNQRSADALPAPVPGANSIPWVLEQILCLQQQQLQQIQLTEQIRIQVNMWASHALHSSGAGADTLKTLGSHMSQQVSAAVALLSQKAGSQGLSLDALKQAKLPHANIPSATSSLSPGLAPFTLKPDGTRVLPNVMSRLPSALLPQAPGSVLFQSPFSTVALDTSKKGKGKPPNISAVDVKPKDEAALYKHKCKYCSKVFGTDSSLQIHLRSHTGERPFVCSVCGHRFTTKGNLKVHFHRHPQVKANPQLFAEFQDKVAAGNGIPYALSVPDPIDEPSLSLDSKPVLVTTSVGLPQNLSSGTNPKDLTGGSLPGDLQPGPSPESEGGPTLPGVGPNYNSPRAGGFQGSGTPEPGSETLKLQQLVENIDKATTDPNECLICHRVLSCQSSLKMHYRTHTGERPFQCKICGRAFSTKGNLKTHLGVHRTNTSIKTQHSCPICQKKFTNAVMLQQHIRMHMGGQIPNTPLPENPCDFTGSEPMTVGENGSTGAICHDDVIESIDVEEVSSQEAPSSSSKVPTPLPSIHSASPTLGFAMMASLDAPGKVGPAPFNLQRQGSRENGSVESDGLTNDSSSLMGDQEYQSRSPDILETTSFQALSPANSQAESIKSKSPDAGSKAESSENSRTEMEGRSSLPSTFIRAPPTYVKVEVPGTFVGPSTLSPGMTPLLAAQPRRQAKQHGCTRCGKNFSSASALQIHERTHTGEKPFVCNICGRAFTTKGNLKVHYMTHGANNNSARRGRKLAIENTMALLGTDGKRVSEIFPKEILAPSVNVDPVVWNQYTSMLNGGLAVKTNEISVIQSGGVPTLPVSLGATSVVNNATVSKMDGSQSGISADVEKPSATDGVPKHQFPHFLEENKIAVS
Technique: universal PBM
Molecule type: double-stranded DNA, one strand shown
Matrix: in vitro
Concentration: 600 nM
Notes: 8-mer, flanks averaged, mean of replicates
Reading: higher = stronger binding
| Sequence | E-score |
| --- | --- |
| CGGGATAG | -0.194 |
| AATGGTCC | -0.00717 |
| AGGAGGCG | -0.221 |
| CGCGTTGA | -0.181 |
| TCGCTTCA | 0.0325 |
| AAACCAGT | 0.0637 |
| CTACGAAG | -0.107 |
| AAATCCGA | 0.127 |
| GCCTCCAC | -0.257 |
| AATGTGTC | 0.073 |
| GACGGGTA | -0.238 |
| CATAGAGG | 0.0384 |
| AGGGACCT | -0.219 |
| AGCCGCCA | -0.325 |
| ACGTTCCC | -0.154 |
| AATTGCCC | 0.0923 |
| GGCTGCGA | -0.065 |
| CATGTGAG | -0.0675 |
| CAAGAAGG | 0.0199 |
| ATCCCAAA | 0.108 |
| CGAGCCGC | -0.134 |
| AACGATTC | 0.107 |
| AACCTTAT | 0.147 |
| CCGATCGA | -0.1 |
| TGGGTCAA | -0.169 |

Repeated from above (set 4):
| Sequence | E-score |
| --- | --- |
| AAACCAGT | 0.0637 |
| CATAGAGG | 0.0384 |
| CGAGCCGC | -0.134 |
| ACGTTCCC | -0.154 |
| AACGATTC | 0.107 |
| AACCTTAT | 0.147 |
| CCGATCGA | -0.1 |
| GCCTCCAC | -0.257 |
| AGGAGGCG | -0.221 |
| CATGTGAG | -0.0675 |
| AATGGTCC | -0.00717 |
| CGGGATAG | -0.194 |
